Measurements of several laboratories.
Numbers after ± are the reported error.

C[C@]1(CO)Cc2ncn(-c3ccc(C#N)c(Cl)c3)c2C(=O)O1  subjects with drug-related TEAE (measured: abnormal skin odour; human; 10 mg multiple doses, fasted): 0%
C=C(C)[C@@H]1CCC(C)=C[C@H]1c1c(O)cc(CCC)c(C(=O)O)c1O  plasma concentration (LC-MS/MS; Scn1a+/− mice, plasma; intraperitoneal, 100 mg/kg, after hyperthermia protocol): 79 ± 10 µg/mL
Cn1cncc1-c1c(F)cncc1NC(=O)c1c(N)nn2cc(F)cnc12  grade ≥3 white cell decrease incidence (human patients; oral, 180 mg once daily): 0%
O=C(Nc1ccccc1)C1CCN(C(=O)Oc2cccnc2)CC1  change in Interested-Bored score (Bond-Lader VAS; healthy women; oral, 20 mg; baseline: pre-dose baseline, direction not given): -3.7
CC(C)(C(=O)NC1C2CC3CC1CC(C(N)=O)(C3)C2)N1CCN(c2ccc(C(F)(F)F)cn2)CC1 (stereo not shown)  dose-normalised free AUC(0-24) (human, plasma; 50 mg once daily, 5 days, median): 1.19 (ng·h/mL)/mg
CO[C@H]1C[C@@H]2CC[C@@H](C)[C@@](O)(O2)C(=O)C(=O)N2CCCC[C@H]2C(=O)O[C@H]([C@H](C)C[C@@H]2CC[C@@H](OC(=O)NCCOCCOCCOCCOCCOCCOCCOCCOCCC(=O)N3CCc4cc(Cn5nc(-c6ccc7oc(N)nc7c6)c6c(N)ncnc65)ccc4C3)[C@H](OC)C2)C[C@@H](O)[C@H](C)/C=C(\C)[C@@H](O)[C@@H](OC)C(=O)[C@H](C)C[C@H](C)/C=C/C=C/C=C/1C  AEs causing dose modification (phase 1 dose escalation; advanced solid tumour patients; intravenous, 8 mg weekly, any grade): 56.3%
N=C(N)NCCC[C@@H](NC(=O)[C@@H](N)Cc1ccccc1)C(=O)N[C@@H](Cc1ccccc1)C(=O)N[C@@H](CCCCN)C(N)=O  fraction of dose excreted in urine (early Huntington's disease patients, urine; subcutaneous, 25 mg, 5.833 h, mean): 31%
Cc1cc(C)c(CNC(=O)c2cc(Cl)c3c(c2C)O[C@@](C)([C@H]2CC[C@H](N(C)C)CC2)O3)c(=O)[nH]1  Arthralgia incidence (human, relapsed/refractory NHL; concentration not given, all TEAEs, grade 5): 0%
CCOC(=O)C1=C[C@@H](OC(CC)CC)[C@H](NC(C)=O)[C@@H](N)C1  elimination rate constant (Sprague-Dawley rat male, plasma and urine; oral, 30 mg/kg): 1.49 h⁻¹
CCc1ccc(CC/C=C/c2ccc3c(c2)C(=O)CC3)cc1  HDW (Sprague-Dawley rat, male; oral, 120 mg/kg/day, 14 days): 24 g/L
CCCCCCCCCCC[C@H](OC1OC[C@H](O)[C@@H](O)[C@@H]1O)[C@H](O)[C@H](O)C[C@@H]1CC(=O)N[C@H](CO)C(=O)N[C@H]([C@H](O)c2ccc(O)cc2)C(=O)N[C@H](CCN)C(=O)NCC(=O)N[C@@H](CC(N)=O)C(=O)N[C@@H](CO)C(=O)N[C@@H]([C@H](O)C(N)=O)C(=O)N1 (stereo partly shown)  freeze-thaw stability, deviation (LC-MS/MS; rabbit plasma; 200 ng/mL, 3 freeze-thaw cycles; baseline: nominal concentration): -14.3%
COc1cc2c(Oc3ccc4[nH]c(C)cc4c3F)ccnc2cc1OCC1(N)CC1  abdominal pain incidence (paediatric recurrent refractory sarcoma; 12 mg): 36.4%
CN1CC[C@@H](c2c(O)cc(O)c3c(=O)cc(-c4ccc(C(F)(F)F)cc4Cl)oc23)[C@@H]1CO  patients with adverse event (measured: Epistaxis; relapsed B-cell malignancies; oral, 150 mg, grade 3-4, intermittent dosing): 0%

Some of these lines once more:
CCCCCCCCCCC[C@H](OC1OC[C@H](O)[C@@H](O)[C@@H]1O)[C@H](O)[C@H](O)C[C@@H]1CC(=O)N[C@H](CO)C(=O)N[C@H]([C@H](O)c2ccc(O)cc2)C(=O)N[C@H](CCN)C(=O)NCC(=O)N[C@@H](CC(N)=O)C(=O)N[C@@H](CO)C(=O)N[C@@H]([C@H](O)C(N)=O)C(=O)N1 (stereo partly shown)  freeze-thaw stability, deviation (LC-MS/MS; rabbit plasma; 200 ng/mL, 3 freeze-thaw cycles; baseline: nominal concentration): -14.3%
